Published values from different studies.
Protocols differ between the studies behind these lines. Several values in a cell are separate wells, animals, samples, runs or records. ± marks the error that the study gave.

Cc1cccc(CNC(=O)c2cn(CCNC(=O)c3ccccc3Sc3c([N+](=O)[O-])ncn3C)c3cc4c(cc3c2=O)OC(F)(F)O4)n1 — AUC(0-inf) (Sprague-Dawley rat, male, plasma; intramuscular, 3 mg/kg): 184 ± 57.3 ng·h/mL
CCCCN1CCN(C(C)C(=O)Nc2c(C)csc2C(=O)OC)CC1 (stereo not drawn) — AUC(0-inf) (rat (Sprague-Dawley, male), plasma; subcutaneous, 62.3 mmol/L): 5560 ng·h/mL
CNC(=O)c1cccc(-c2ccc(O[C@H]3O[C@H](CO)[C@@H](O)[C@H](O)[C@@H]3O)c(C)c2)c1 — AUC(0-inf) (male Sprague-Dawley rat, plasma; intravenous, 3 mg/kg, group mean): 518 ng·h/mL
N#CC(Cc1ccc(O)cc1)c1ccc(O)cc1 (stereo not drawn) — AUC(0-inf) (item: aglycone; rat, Long-Evans, female, serum; subcutaneous, 2 mg/kg single dose): 2.5 ± 0.52 µM·h
CSc1ccccc1C(=O)NCCn1cc(C(=O)NCc2cccc(C)n2)c(=O)c2cc3c(cc21)OC(F)(F)O3 — AUC(0-inf) (Sprague-Dawley rat, male, plasma; intravenous, 5 mg/kg of parent compound): 175 ± 19.6 ng·h/mL
COC(=O)C1=CO[C@@H](O[C@@H]2O[C@H](CO)[C@@H](O)[C@H](O)[C@H]2O)[C@@H]2C(CO)=CC[C@H]12 — AUC(0-inf) (rat, plasma; oral, 500 mg/kg Eu + 217 mg/kg Pc extract, dosed as combined Eu and Pc extracts): 103 ± 86.2 ng·h/mL
C=CC(=O)N1CCC([C@@H]2CCNc3c(C(N)=O)c(-c4ccc(Oc5ccccc5)cc4)nn32)CC1 — AUC(0-inf) (Sprague-Dawley rats, plasma; oral, 16 mg/kg, added: posaconazole 40 mg/kg): 2890 ± 583 ng·h/mL
Cc1ccc(S(=O)(=O)n2cc3c4c2C(=O)C(NCc2ccc(Cl)cc2)=CC4=NCC3)cc1 — AUC(0-inf) (Sprague-Dawley rat, plasma; intravenous, 5 mg/kg, individual rat): 896 ng·h/mL and 2370 ng·h/mL and 2100 ng·h/mL
O=C1C[C@@H](c2ccc(O)cc2)Oc2cc(O)cc(O)c21 — AUC(0-inf) (Sprague-Dawley rat, plasma; intravenous bolus, 1 mg/kg): 25400 ± 2680 ng·h/mL
C1=C/COCc2cc(ccc2OCCN2CCCC2)Nc2nccc(n2)-c2cccc(c2)COC/1 — AUC(0-inf) (LC-MS/MS; Sprague-Dawley rat, male, plasma; oral, 36 mg/kg, added: voriconazole 30 mg/kg oral): 4210 ± 2390 ng·h/mL
O=C1c2ccncc2C(=O)c2c1[nH]c1ccccc21 — AUC(0-inf) (Sprague-Dawley rat, male, plasma; intravenous, 1 mg/kg): 0.844 ± 0.311 µM·h
OCC1=C[C@@H](O)[C@@H]2C=CO[C@@H](O[C@@H]3O[C@H](CO)[C@@H](O)[C@H](O)[C@H]3O)[C@H]12 — AUC(0-inf) (rat, plasma; oral, 500 mg/kg Eu + 217 mg/kg Pc extract, dosed as combined Eu and Pc extracts): 132 ± 53.1 ng·h/mL
CNC(=O)c1cccc(-c2ccc([C@@H](O)[C@H]3O[C@H](CO)[C@@H](O)[C@H](O)[C@@H]3O)c(C)c2)c1 — AUC(0-inf) (male Sprague-Dawley rat, plasma; oral, 10 mg/kg, individual animal): 103 ng·h/mL and 74 ng·h/mL
CCc1cc(C(=O)NC)c2nccc(N3CCc4c(cc(Cn5ccnc5)cc4-c4cn(C)nc4C(F)(F)F)C3=O)c2c1 — AUC(0-inf) (Sprague Dawley rat, male, plasma; oral, 50 mg/kg once daily, 7 days, toxicokinetic satellite group): 14400 ng·h/mL
Cc1cccc(CNC(=O)c2cn(CCNC(=O)c3ccccc3S)c3cc4c(cc3c2=O)OC(F)(F)O4)n1 — AUC(0-inf) (Sprague-Dawley rat, male, whole blood; intramuscular, 3 mg/kg of parent compound): 2740 ng·h/mL
C=CC(=O)N1CCC(Oc2cc3c(Nc4ccc(Cl)c(Cl)c4F)ncnc3cc2OC)CC1 — AUC(0-inf) (male Sprague-Dawley rats, plasma; oral, 2 mg/kg, added: schisandrin A pretreatment 20 mg/kg daily 1 week): 6830 ± 895 ng·h/mL
Cc1nc(-c2cnc(NC(C)C)n(C)c2=O)ccc1Oc1ccnc(-c2cnn(C)c2)c1 — AUC(0-inf) (Sprague-Dawley rat, male, plasma; intravenous, 1 mg/kg): 29600 ng·h/mL
CCCCOCCOc1ccc(-c2ccc3c(c2)/C=C(/C(=O)Nc2ccc([S@@+]([O-])Cc4cncn4CCC)cc2)CCCN3CC(C)C)cc1 — AUC(0-inf) (moderate hepatic impairment patients, plasma; oral, 150 mg, day 1, single dose, geometric mean): 5810 ng·h/mL

A few entries again:
CCc1cc(C(=O)NC)c2nccc(N3CCc4c(cc(Cn5ccnc5)cc4-c4cn(C)nc4C(F)(F)F)C3=O)c2c1 — AUC(0-inf) (Sprague Dawley rat, male, plasma; oral, 50 mg/kg once daily, 7 days, toxicokinetic satellite group): 14400 ng·h/mL
